Assay results from different studies.
Protocols differ between the studies behind these lines. Values joined by “and” are separate records of one study, mostly repeats; a detail may differ. Numbers after ± are the reported error. In brackets after ≈: the same amount, converted by molar mass.
Chain of UniProt P00797 (whole entry, looked up): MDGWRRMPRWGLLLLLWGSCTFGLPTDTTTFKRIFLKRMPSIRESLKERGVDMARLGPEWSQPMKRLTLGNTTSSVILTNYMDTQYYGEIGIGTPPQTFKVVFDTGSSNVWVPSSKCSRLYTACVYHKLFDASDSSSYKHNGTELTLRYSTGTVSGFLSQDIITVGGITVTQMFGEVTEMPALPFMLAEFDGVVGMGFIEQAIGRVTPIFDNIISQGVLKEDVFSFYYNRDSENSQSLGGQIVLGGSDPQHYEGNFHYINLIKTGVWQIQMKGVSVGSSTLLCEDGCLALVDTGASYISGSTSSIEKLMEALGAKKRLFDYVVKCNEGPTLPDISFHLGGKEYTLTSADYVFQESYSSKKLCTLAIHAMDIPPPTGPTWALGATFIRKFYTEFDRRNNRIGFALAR
Chain of UniProt P15823 (whole entry, looked up): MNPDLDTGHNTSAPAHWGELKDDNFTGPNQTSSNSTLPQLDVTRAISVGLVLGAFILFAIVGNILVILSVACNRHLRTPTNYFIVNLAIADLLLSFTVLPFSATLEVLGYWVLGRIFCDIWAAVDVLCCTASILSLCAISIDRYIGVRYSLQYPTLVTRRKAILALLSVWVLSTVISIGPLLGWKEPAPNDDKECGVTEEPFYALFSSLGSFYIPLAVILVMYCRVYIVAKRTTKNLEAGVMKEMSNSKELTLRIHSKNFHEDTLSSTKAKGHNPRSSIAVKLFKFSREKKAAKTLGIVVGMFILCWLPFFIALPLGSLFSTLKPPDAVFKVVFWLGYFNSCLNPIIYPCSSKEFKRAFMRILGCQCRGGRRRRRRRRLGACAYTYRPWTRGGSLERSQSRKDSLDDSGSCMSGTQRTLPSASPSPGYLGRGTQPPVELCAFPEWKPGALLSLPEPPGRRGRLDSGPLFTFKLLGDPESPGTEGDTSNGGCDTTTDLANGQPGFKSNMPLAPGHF
Chain of UniProt P06276 (whole entry, looked up): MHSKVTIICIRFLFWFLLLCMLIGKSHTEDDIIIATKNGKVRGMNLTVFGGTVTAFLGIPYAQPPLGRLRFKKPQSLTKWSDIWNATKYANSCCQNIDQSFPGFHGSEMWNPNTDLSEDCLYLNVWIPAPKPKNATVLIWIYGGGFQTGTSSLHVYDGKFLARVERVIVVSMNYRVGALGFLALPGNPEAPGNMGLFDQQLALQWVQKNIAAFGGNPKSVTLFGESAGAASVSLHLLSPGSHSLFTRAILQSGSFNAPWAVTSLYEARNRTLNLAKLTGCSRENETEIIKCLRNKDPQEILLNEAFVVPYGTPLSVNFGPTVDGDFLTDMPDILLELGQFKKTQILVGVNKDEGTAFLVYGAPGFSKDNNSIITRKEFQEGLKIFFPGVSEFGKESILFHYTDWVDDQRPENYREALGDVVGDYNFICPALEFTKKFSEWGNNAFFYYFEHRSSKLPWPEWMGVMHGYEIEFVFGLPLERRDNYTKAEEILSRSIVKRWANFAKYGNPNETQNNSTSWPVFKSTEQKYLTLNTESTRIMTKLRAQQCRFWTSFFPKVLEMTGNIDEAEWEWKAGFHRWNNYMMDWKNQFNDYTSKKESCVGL
Chain of UniProt Q16512 (whole entry, looked up): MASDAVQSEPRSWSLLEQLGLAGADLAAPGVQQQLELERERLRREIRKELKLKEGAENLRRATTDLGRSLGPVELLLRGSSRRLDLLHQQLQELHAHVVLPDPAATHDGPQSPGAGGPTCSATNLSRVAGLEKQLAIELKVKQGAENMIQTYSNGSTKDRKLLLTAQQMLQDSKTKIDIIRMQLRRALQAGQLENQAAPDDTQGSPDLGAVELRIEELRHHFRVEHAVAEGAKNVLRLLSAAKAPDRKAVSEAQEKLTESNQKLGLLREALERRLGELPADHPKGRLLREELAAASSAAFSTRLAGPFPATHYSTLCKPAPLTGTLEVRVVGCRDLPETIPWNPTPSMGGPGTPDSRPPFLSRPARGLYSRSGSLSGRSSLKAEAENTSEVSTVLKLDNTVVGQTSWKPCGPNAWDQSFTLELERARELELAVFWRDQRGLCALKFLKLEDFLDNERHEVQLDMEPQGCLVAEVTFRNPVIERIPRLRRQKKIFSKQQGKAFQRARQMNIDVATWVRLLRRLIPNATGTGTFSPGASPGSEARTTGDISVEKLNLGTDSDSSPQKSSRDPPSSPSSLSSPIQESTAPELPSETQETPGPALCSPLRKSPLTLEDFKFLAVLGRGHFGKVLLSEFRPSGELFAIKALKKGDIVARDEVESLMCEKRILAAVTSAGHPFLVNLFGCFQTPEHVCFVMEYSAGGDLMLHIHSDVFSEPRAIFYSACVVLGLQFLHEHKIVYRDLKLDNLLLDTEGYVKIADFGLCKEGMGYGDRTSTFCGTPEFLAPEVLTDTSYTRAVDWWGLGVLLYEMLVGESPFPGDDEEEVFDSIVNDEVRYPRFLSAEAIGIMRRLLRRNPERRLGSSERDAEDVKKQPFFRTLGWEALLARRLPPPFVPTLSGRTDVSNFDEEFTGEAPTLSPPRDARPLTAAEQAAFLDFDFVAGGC

Structure (SMILES)	tested on	assay	system	setting	how to read	measurement	value
NC12CC3CC(CC(C3)C1)C2	Plasmodium falciparum		7G8			IC50	5010 nM
CCc1nc2nc(C)cc(Nc3ccc4c(c3)OCCO4)n2n1	Plasmodium falciparum	parasite growth, SYBR Green	3D7 DHODH E182D	72 h		EC50	> 12500 nM
OC(Cn1cncn1)(Cn1cncn1)c1ccc(F)cc1F	Alternaria solani	broth microdilution				MLC	32 ± 3 µg/mL (≈ 104 µM)
Oc1ccc(-c2nc(-c3ccc(Oc4cccc(I)c4)cc3)no2)cc1	Clostridioides difficile	spore germination	ATCC 43255	45 µM, 1 h		inhibition	14 to 39%
Cc1cc(Cl)cc(S(C)(=O)=O)c1NC(=O)c1cc(Br)nn1-c1ncccc1Cl	Spodoptera litura	leaf-dip	third instar larvae	6.25 ppm, 96 h		mortality	100%
CNCC(=O)N[C@@H](CO)C(=O)N[C@H]1[C@H](O)[C@@H](O)[C@H](n2ccc(N)nc2=O)O[C@@H]1C(N)=O	Pepper mild mottle virus			500 µg/mL		inactivation activity	70% and 73%
CNC(=O)c1cc(Cl)cc(C)c1NC(=O)c1cc(Br)nn1-c1ncccc1Cl	Spodoptera litura		Brassica oleracea field plot	25 ppm, 168 h, 5% water-dispersible granule		larval viability	21.9% and 20% and 22.9%
Nc1nc(N)c2nc(-c3ccccc3)c(N)nc2n1	Plasmodium falciparum		D10			IC50	2510 nM
NCCCC[C@@H]1NC(=O)[C@@H](CCCCN)NC(=O)[C@H](CO)NC(=O)[C@H](Cc2c[nH]c3ccccc23)NC(=O)[C@@H](Cc2c[nH]c3ccccc23)NC(=O)[C@H](Cc2ccccc2)NC(=O)[C@@H](CCCCN)NC1=O	Naegleria fowleri			trophozoites		IC50	> 16 µg/mL
CCC[C@@H]1C[C@@H](C(=O)N[C@@H]([C@H]2O[C@H](SC)[C@H](O)[C@@H](O)[C@H]2O)[C@H](C)Cl)N(C)C1	Streptococcus pneumoniae					MIC90	> 32 µg/mL
Cc1nc(Nc2ccc(C)c(Cl)c2)c2c(C)noc2n1	Plasmodium falciparum	parasite growth	Dd2			EC50	375 ± 81 nM
C#Cc1ccc(C=NNC(=O)c2ccc(Br)cc2Br)c(O)c1	Cryptococcus neoformans		H99	unit not given, together with: amphotericin B	lower = more synergy	FICI	1.25
CC(C)C[C@H]1NC(=O)[C@H]([C@@H](C)O)NC(=O)[C@@H](CCCN)NC(=O)[C@H](CCCNC(=N)N)NC(=O)[C@@H](Cc2ccccc2)NC1=O	Naegleria fowleri			trophozoites		IC90	> 16 µg/mL
COc1c(CCC[P+](c2ccccc2)(c2ccccc2)c2ccccc2)cc2c(c1OC)OCO2.[I-]	SK-OV-3	SRB				TGI	-5.07 log M
C[C@@H](O)[C@@H]1NC(=O)[C@H](Cc2ccccc2)NC(=O)[C@@H](Cc2ccccc2)NC(=O)[C@H]([C@@H](C)O)NC(=O)[C@@H](CCCN)NC(=O)[C@H](CCCN)NC(=O)[C@@H](CCCCN)NC1=O	Naegleria fowleri			trophozoites		IC50	> 16 µg/mL
Cc1ccc2[nH]c3c(c2c1)CCCC3NCCc1cccc(Br)c1 (stereo not drawn)	Streptococcus pneumoniae			concentration not given, 10% fetal bovine serum	baseline: without serum	MIC fold change	4
NC(=NCc1ccccc1)NC(=O)c1nc(Cl)c(N)nc1N	Plasmodium falciparum		Dd2			IC50	12600 nM
COc1ccc2c(ccc3oc([N+](=O)[O-])c(OC)c32)c1	Klebsiella pneumoniae	REMA				MIC90	> 32 µg/mL
CO/C=C(/C(=O)OC)c1ccccc1Oc1cc(Oc2ccccc2C#N)ncn1	Botrytis cinerea	lesion diameter, spray	B05.10, cucumber seedlings	3 days, 20 °C		EC95	12.4 µg/mL (≈ 30.7 µM)
CC(=O)N[C@H]1[C@@H](O[C@@H]2O[C@H](C[C@@H](O)[C@H]3O[C@@H](n4ccc(=O)[nH]c4=O)[C@H](O)[C@@H]3O)[C@H](O)[C@H](O)[C@H]2NC(=O)/C=C/CCCCCCCCCC(C)C)O[C@H](CO)[C@@H](O)[C@@H]1O	Candida glabrata	alamar blue	DSY565 (NR-51686)			MIC50	0.93 ± 0.055 µg/mL (≈ 1.12 µM)
OCCN1CCN(CC/C=C2/c3ccccc3Sc3ccc(C(F)(F)F)cc32)CC1	Plasmodium falciparum		W2			IC50	1260 nM
C[C@H]1CN(c2n[nH]c3nc(N[C@H]4CC[C@H](NS(=O)(=O)CCC(F)(F)F)CC4)ncc23)CCO1	Serine/threonine-protein kinase N1 (PKN1, Homo sapiens, UniProt Q16512)	inhibitor, Kinobeads competition profiling		20 µM	baseline: vehicle	relative abundance	1.09
CC(CN1c2ccccc2Sc2ccccc21)N(C)C (stereo not drawn)	Plasmodium falciparum		3D7			IC50	12600 nM
CC[C@H](C)[C@@H]1NC(=O)[C@@H]2CCCN2C(=O)[C@H](CC(C)C)NC(=O)[C@H](CC(C)C)NC(=O)CNC(=O)[C@@H](NC(=O)[C@@H](NC(=O)[C@H](CC(=O)O)NC(=O)CNC(=O)[C@@H](NC(=O)[C@H](C)NC(=O)CNC(=O)[C@H](CCCCN)NC(=O)[C@H](CC(C)C)NC(=O)[C@H](CC(C)C)NC(=O)[C@H](CCCCN)NC(=O)CNC(=O)[C@@H](NC(=O)[C@@H](N)CC(C)C)C(C)C)C(C)C)C(C)C)CSSC[C@@H](C(=O)O)NC1=O		RNA-seq, measured: Vasp mRNA	mouse traumatic brain injury, frontal cortex and hippocampus	dose not given	baseline: TBI plus compound vs TBI	log2 fold change	-2.44
Cc1cc(Nc2ccc(Cl)c(Cl)c2)n2nc(C)nc2n1	Plasmodium falciparum	parasite growth, SYBR Green	3D7 wild type	72 h		EC50	777 ± 120 nM
NCCCC[C@H]1NC(=O)[C@H](CO)NC(=O)[C@H](Cc2ccccc2)NC(=O)[C@@H](Cc2ccccc2)NC(=O)[C@H](Cc2c[nH]c3ccccc23)NC(=O)[C@@H](CCCN)NC(=O)[C@H](CCCN)NC1=O	Naegleria fowleri			trophozoites		IC90	> 16 µg/mL

Structure (SMILES)	tested on	assay	system	setting	how to read	measurement	value
COc1cc(Nc2ncc(F)c(Nc3ccc4c(n3)NC(=O)C(C)(C)O4)n2)cc(OC)c1OC	Renin (REN, Homo sapiens, UniProt P00797)					IC50	> 10000 nM
CC1(C)S[C@@H]2[C@H](NC(=O)[C@H](N)c3ccccc3)C(=O)N2[C@H]1C(=O)O	Escherichia coli	broth microdilution	isolate IU, CTX-M-14, TEM-1	no clavulanic acid		MIC	> 200 µg/mL
O=c1cnn([C@@H]2O[C@H](CO)[C@@H](O)[C@H]2O)c(=O)[nH]1	respiratory syncytial virus		RSV-infected cells	concentration not given		apoptosis	decreased
O=C(O)c1cccc(C(=O)O)n1	Pseudomonas aeruginosa		VIM-2 and OXA-50 producer	32 µg/mL, together with: meropenem		meropenem MIC	2 µg/mL
Oc1ccc(-c2nc(-c3ccc(Oc4ccc(I)cc4)cc3)no2)cc1	Clostridioides difficile	spore germination	ATCC 43255	45 µM, 1 h		inhibition	14 to 39%
C#Cc1ccc(O)c(C=NNC(=O)c2ccc(Br)c(Br)c2)c1	Cryptococcus neoformans		H99	unit not given, together with: amphotericin B	lower = more synergy	FICI	1.06
CO[C@H]1C[C@@H]2CC[C@@H](C)[C@@](O)(O2)C(=O)C(=O)N2CCCC[C@H]2C(=O)O[C@H]([C@H](C)C[C@@H]2CC[C@@H](OC(=O)NCCOCCOCCOCCOCCOCCOCCOCCOCCC(=O)N3CCc4cc(Cn5nc(-c6ccc7oc(N)nc7c6)c6c(N)ncnc65)ccc4C3)[C@H](OC)C2)C[C@@H](O)[C@H](C)/C=C(\C)[C@@H](O)[C@@H](OC)C(=O)[C@H](C)C[C@H](C)/C=C/C=C/C=C/1C		phase 1 dose escalation, measured: rash	advanced solid tumour patients	intravenous, 6 mg weekly, any grade		TRAE incidence	33.3%
C#Cc1ccc(C=NNC(=O)c2ccc(COC)cc2)c(O)c1	Cryptococcus neoformans	time-kill	H99	concentration not given		time to complete kill	3 h
CC(C)CN1CCc2ccc(Br)cc21	Plasmodium falciparum		3D7			IC50	10000 nM
O=C(NC(=O)c1c(F)cccc1F)Nc1ccc(Cl)cc1	Ostrinia furnacalis	leaf dipping		500 mg/L, 96 h		mortality	89.3 ± 3.5%
CC(C)C(NC(=O)Cc1cccc2ccccc12)C(=O)Nc1cccc(C#N)c1 (stereo not drawn)	Plasmodium falciparum	parasite growth, SYBR Green	3D7 wild type	72 h		EC50	363 ± 66 nM
NCCCC[C@@H]1NC(=O)[C@@H](CCCN)NC(=O)[C@@H](Cc2ccccc2)NC(=O)[C@H](Cc2ccccc2)NC(=O)CNC1=O	Acanthamoeba castellanii			trophozoites		IC50	> 16 µg/mL
Cc1cccc(C(=O)N2CCN(Cc3cccc(NC(=O)c4cccs4)c3)CC2)c1	Plasmodium falciparum	parasite growth, SYBR Green	3D7 wild type	72 h		EC50	262 ± 100 nM
COc1cc(CCC[P+](c2ccccc2)(c2ccccc2)c2ccccc2)c(OC)c2c1OCO2.[I-]	NCI-H226	SRB				TGI	-4.67 log M
C#C[C@@]1(O)[C@H](O)[C@@H](CO)O[C@H]1n1ccc2c(N)ncnc21	dengue virus 2	viral replication	Huh-7.5.1, Renilla luciferase reporter			EC90	1300 nM
CS(=O)(=O)CCCn1c(Cn2c(=O)n(CC(F)(F)F)c3ccncc32)cc2cc(Cl)ccc21	respiratory syncytial virus	RT-qPCR	hospitalized infants 1-24 months, nasal swab	oral, 1-9 mg/kg daily, day 5, all doses combined	baseline: baseline	LS mean viral load change	-3.67 log10 copies/mL
CC(C)[C@H]1NC(=O)[C@H](Cc2ccccc2)NC(=O)[C@@H](Cc2c[nH]c3ccccc23)NC(=O)[C@H](CCCNC(=N)N)NC(=O)[C@@H](CCCN)NC(=O)[C@H](CC(N)=O)NC1=O	Naegleria fowleri			trophozoites		IC90	> 16 µg/mL
CN(C)c1nc(NCc2ccc(OC(F)(F)F)cc2)c(/N=N/c2ccc(Cl)cc2)c(N(C)C)n1	Ostrinia furnacalis	leaf dipping		50 mg/L, 96 h		mortality	16.7 ± 5.8%
C[C@H]1NC(=O)[C@H](Cc2c[nH]c3ccccc23)NC(=O)[C@@H](Cc2ccccc2)NC(=O)[C@@H](CCCN)NC(=O)[C@H]([C@@H](C)O)NC(=O)[C@@H](CCCN)NC(=O)[C@H](Cc2c[nH]c3ccccc23)NC(=O)[C@@H](C)NC1=O	Acanthamoeba castellanii			trophozoites		IC90	> 16 µg/mL
CCN(CC)CCO[C@H]1CC[C@@]2(C)C(=CC[C@@H]3[C@@H]2CC[C@]2(C)C(=O)CC[C@@H]32)C1	human rotavirus	viral replication, focus reduction	MA104, DS-1			EC90	19900 nM
CC1(N2CCC(n3c([C@@H]4CCCNC4)nc4ccccc43)CC2)CCCCCCC1	Cholinesterase (BCHE, Homo sapiens, UniProt P06276)	inhibitor, fluorometric				IC50	11000 ± 11500 nM
COc1cc(N[C@H](C(=O)c2c[nH]c3ccc(OC(F)(F)F)cc23)c2ccc(Cl)cc2OC)cc(S(C)(=O)=O)c1	dengue virus 2	viral infection, luciferase reporter virus		0.1 nM, 48 h		inhibition	88.3%
O=C(Nc1cccnn1)N1CCC(=Cc2cccc(Oc3ccc(C(F)(F)F)cn3)c2)CC1	Alpha-1B adrenergic receptor (Adra1b, Rattus norvegicus, UniProt P15823)	binding		50 µM, together with: [3H]prazosin		inhibition	32%
Cc1c2c(nn1C)CSCc1cc(n(C)n1)CSc1cc(c3ccccc3c1)OCCCc1c(C(=O)O)n(C)c3c-2c(Cl)ccc13	Staphylococcus aureus	label-free proteomics, measured: tdcB	SA113	concentration not given	baseline: untreated	protein level fold change	0.0385
CC(COc1ccccc1)N(CCCl)Cc1ccccc1 (stereo not drawn)	Plasmodium falciparum		W2			IC50	2510 nM

Some of these lines once more:
Structure (SMILES)	tested on	assay	system	setting	how to read	measurement	value
COc1cc(N[C@H](C(=O)c2c[nH]c3ccc(OC(F)(F)F)cc23)c2ccc(Cl)cc2OC)cc(S(C)(=O)=O)c1	dengue virus 2	viral infection, luciferase reporter virus		0.1 nM, 48 h		inhibition	88.3%
CCN(CC)CCO[C@H]1CC[C@@]2(C)C(=CC[C@@H]3[C@@H]2CC[C@]2(C)C(=O)CC[C@@H]32)C1	human rotavirus	viral replication, focus reduction	MA104, DS-1			EC90	19900 nM
CS(=O)(=O)CCCn1c(Cn2c(=O)n(CC(F)(F)F)c3ccncc32)cc2cc(Cl)ccc21	respiratory syncytial virus	RT-qPCR	hospitalized infants 1-24 months, nasal swab	oral, 1-9 mg/kg daily, day 5, all doses combined	baseline: baseline	LS mean viral load change	-3.67 log10 copies/mL
CCC[C@@H]1C[C@@H](C(=O)N[C@@H]([C@H]2O[C@H](SC)[C@H](O)[C@@H](O)[C@H]2O)[C@H](C)Cl)N(C)C1	Streptococcus pneumoniae					MIC90	> 32 µg/mL
CNC(=O)c1cc(Cl)cc(C)c1NC(=O)c1cc(Br)nn1-c1ncccc1Cl	Spodoptera litura		Brassica oleracea field plot	25 ppm, 168 h, 5% water-dispersible granule		larval viability	21.9% and 20% and 22.9%
CNCC(=O)N[C@@H](CO)C(=O)N[C@H]1[C@H](O)[C@@H](O)[C@H](n2ccc(N)nc2=O)O[C@@H]1C(N)=O	Pepper mild mottle virus			500 µg/mL		inactivation activity	70% and 73%
CO[C@H]1C[C@@H]2CC[C@@H](C)[C@@](O)(O2)C(=O)C(=O)N2CCCC[C@H]2C(=O)O[C@H]([C@H](C)C[C@@H]2CC[C@@H](OC(=O)NCCOCCOCCOCCOCCOCCOCCOCCOCCC(=O)N3CCc4cc(Cn5nc(-c6ccc7oc(N)nc7c6)c6c(N)ncnc65)ccc4C3)[C@H](OC)C2)C[C@@H](O)[C@H](C)/C=C(\C)[C@@H](O)[C@@H](OC)C(=O)[C@H](C)C[C@H](C)/C=C/C=C/C=C/1C		phase 1 dose escalation, measured: rash	advanced solid tumour patients	intravenous, 6 mg weekly, any grade		TRAE incidence	33.3%
